# Assay results from different studies.
# Every numbered part comes from another study and shows a few of its results, in no order. Positions count from the first letter of the parent shown.

# Sample 1
# Target: RING finger protein unkempt homolog, zinc fingers 1-6, GST-SBP tag (UNK, Homo sapiens, UniProt Q9C0B0, residues 30-357)
# Technique: RNA Bind-n-Seq
# Form: RNA
# Sample: in vitro
# Tested at: not given
# Notes: RNA with constant flanks, ends assumed
# Relative to: input RNA pool
# Direction: higher = stronger binding
# All sequences stand within: GGGAGUUCUACAGUCCGACGAUC … CAACAGAGGAUUGAGCAUCA
# Residues (chain): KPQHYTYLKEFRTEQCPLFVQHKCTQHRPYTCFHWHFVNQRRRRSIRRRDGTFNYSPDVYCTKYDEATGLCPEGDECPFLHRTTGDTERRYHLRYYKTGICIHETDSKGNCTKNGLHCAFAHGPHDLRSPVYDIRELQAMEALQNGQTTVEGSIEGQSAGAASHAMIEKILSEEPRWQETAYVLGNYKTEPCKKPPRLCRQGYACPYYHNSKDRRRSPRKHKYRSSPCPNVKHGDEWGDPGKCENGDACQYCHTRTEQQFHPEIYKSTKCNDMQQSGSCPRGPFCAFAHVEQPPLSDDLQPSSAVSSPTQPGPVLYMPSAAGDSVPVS
Sequence,bound/input enrichment
GUGUCCACCUCAGCAGGGGGAAUAAUGACUGCACCAGCCAUUGACAUAUUUUCUACCCCCCGUUCUUCUAACAGCACAUCUAAGCUGCCAAAUGACCUGCUUGACUUGCAGCAGCCAACC,0.202 ratio
AGGUCCAGUGUAUCUAAGGUGCCCUUAUUGCUUCCAAAUGUUUCUGCUUUGGAAUCUCAAACCGAAAUGGGCAACAUAGUUAAACCCAAAGUACUUACGAAAGAAGCAGAGGAAAAACUU,0.185 ratio
CAGAUGGUCACCAGCUCUCAGAGCUGCACACAGCUGCUCUAGGGGAAAUGACCCAGAGCUCCGCUCACUGUAGAGGAAUGUCCUUGGCGGAAUAGGAGAUAAGAGAAAACUCCAAUCUGA,0.0608 ratio
ACACAUAGAGAAGCUGCAUUGUGGAUUAUAUGGGAAUCACUUUGUGAUGCUUUCUGCUGUCCGUUUUUCUUGGGUUUUUGUUUGUUUUGUUUGCAAAUCUGAUGUCUCAUCACUGCAGGU,0.384 ratio
UUCCUAAUAGAUACUAGAUUGUAUUGAAUUCUGUUUUAAUUAUUCUCUAGGUAAGUAUGUUUCCGGAUUAAAUACCUUUUACAGAUACUGAAAGUGCCUCCUUUUGUGGUGUAAAAAACA,1.4 ratio
GUAUUUAAUGUUGAAGUUGUUGCUGUUUCAUCCAUUCAUACACAAGACCCUUAUCCCGACAAAUUCUUUGCUCUUGUCAAUGCUCUGGAUGAACACAUGUUCCCGGUCCGAAUUGGGGAC,0.423 ratio
AAAGCCCAAGUAUUUUGAAAAAACUCGAACAGAUUUGACAAGGGUAGCCAGCUUGGAGUCCCGCAACUUGCCAAUGUGUUUACCAAUCUGGGGGCUUGUUUUUCUUUUCUUCUUUCAAAU,0.364 ratio

# Sample 2
# Target: UBE2N UBC core domain (UniProt P61088)
# Technique: yeast two-hybrid
# Sample: yeast
# Notes: mostly zero background
# Relative to: not given
# Direction: higher = stronger interaction
# B1: ARIH1 RING domain (UniProt Q9Y4X5); chain NTRSSAQDMPCQICYLNYPNSYFTGLECGHKFCMQCWSEYLTTKIMEEGMGQTISCPAHGCDILVDDNTVM
# B2: RNF32 RING domain (UniProt Q9H0A6); chain VQALRRETHECSICLAPLSAAGGQRVGAGRRSREMALLSCSHVFHHACLLALEEFSVGDRPPFHACPLCRSCYQKKILEC
# B3: RNF17 RING domain (UniProt Q9BXT8); chain SQPWGAAEIQCTRCGRRVSRSSGHHCELQCGHAFCELCLLMTEECTTIICPDCEVATAVNTRQR
# B4: MARCHF2 RING domain (UniProt Q9P0N8); chain RLLSTVIRALDTPSDGPFCRICHEGANGECLLSPCGCTGTLGAVHKSCLEKWLSSSNTSYCELCHTEFAVEKRPRPLTEWL
# Construct (chain): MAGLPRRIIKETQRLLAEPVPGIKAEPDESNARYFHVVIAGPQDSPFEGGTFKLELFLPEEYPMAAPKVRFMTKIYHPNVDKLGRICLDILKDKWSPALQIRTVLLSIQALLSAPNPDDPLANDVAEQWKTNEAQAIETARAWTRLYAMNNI
Molecule,lacZ reporter activity
FLSKVEETFQCICCQELVFRPITTVCQHNVCKDCLDRSFRAQVFSCPACRYDLGRSYAMQ (UHRF1 RING domain (UniProt Q96T88)),0
KITELNPHLMCALCGGYFIDATTIVECLHSFCKTCIVRYLETNKYCPMCDVQVHKTRPLL (PCGF2 RING domain (UniProt P35227)),0
B1 (ARIH1 RING domain),0
B2 (RNF32 RING domain),0
B3 (RNF17 RING domain),0
SNNDLASLFECPVCFDYVLPPILQCQSGHLVCSNCRPKLTCCPTCRGPLGSIRNLA (SIAH1 RING domain (UniProt Q8IUQ4)),0
B4 (MARCHF2 RING domain),0
PLRRLQEEKLCKICMDRHIAVVFIPCGHLVTCKQCAEAVDRCPMCSAVIDFKQRVF (BIRC8 RING domain (UniProt Q96P09)),0

# Sample 3
# Target: Histone acetyltransferase KAT6A, winged helix 2, GST fusion (KAT6A, Homo sapiens, UniProt Q92794, residues 85-181)
# Technique: protein binding microarray
# Form: double-stranded DNA, one strand shown
# Sample: in vitro
# Tested at: not given
# Notes: 8-mer, flanks averaged, mean of 2 arrays, mostly near background
# Relative to: not given
# Direction: higher = stronger binding
# Construct (chain): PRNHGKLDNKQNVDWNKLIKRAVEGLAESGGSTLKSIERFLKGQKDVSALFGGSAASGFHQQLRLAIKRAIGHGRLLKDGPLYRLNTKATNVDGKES
Sequence,E-score
AGAAGAGG,-0.0675
ATGAGCTC,0.0378
CCCAGGGC,0.147
GCTCGGAC,0.0805
AAACAGGC,-0.126
AGTCGATG,-0.0439
ACACTACG,-0.106
ATGAGATC,-0.016
AGAATTCG,0.101
TTAACGAA,0.134
CTGAGGGC,0.00351
CAAAAATC,0.045
ACACGATA,0.0766
GGGCCATA,0.159
AAGAGCTC,-0.172
CCGATTAA,0.0619
ATTAACGC,-0.153
GAATCCCC,-0.0453
AGACTGAA,-0.0195
ACTCTTAG,0.021

# Sample 4
# Target: Interferon regulatory factor 7, full length, phosphomimetic (IRF7, Homo sapiens, UniProt Q92985, residues 1-503, S101K/S471D/S472D/S475D/S476D/S477D/S483D/S484D/S487D)
# Chain of UniProt Q92985 (whole entry, unmodified, looked up): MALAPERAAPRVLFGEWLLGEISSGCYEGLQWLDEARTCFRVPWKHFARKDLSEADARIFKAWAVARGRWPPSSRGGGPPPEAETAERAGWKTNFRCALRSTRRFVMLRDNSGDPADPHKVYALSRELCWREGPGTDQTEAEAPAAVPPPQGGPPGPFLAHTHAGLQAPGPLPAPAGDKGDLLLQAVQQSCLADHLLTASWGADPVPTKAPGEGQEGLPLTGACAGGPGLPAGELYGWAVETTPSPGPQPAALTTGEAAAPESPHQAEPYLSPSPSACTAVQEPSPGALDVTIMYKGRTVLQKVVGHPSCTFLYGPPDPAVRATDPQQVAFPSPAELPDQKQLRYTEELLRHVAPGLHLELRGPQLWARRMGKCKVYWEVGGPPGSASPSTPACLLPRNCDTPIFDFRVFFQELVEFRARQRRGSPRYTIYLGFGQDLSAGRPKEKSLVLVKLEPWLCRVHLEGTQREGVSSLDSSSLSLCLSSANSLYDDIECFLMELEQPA
# Technique: protein-binding microarray
# Form: double-stranded DNA, one strand shown
# Sample: in vitro
# Tested at: 250 nM
# Notes: 60-bp whole probe
# Together with: salmon DNA 0.4 mg/ml
# Relative to: random background probes
# Direction: higher = stronger binding
# All sequences stand within: GCCTAGCAC … GTCTTGATTCGCTTGACGCTGCTG
Sequence,log fluorescence
GCCGGTTCCGGTTTCGGGACGTGCTAG,7.88 z-score
TTAGGTTTCGGGTATCGTTTAGTGCTA,8.3 z-score
TTAGATTACAGTTCCGATTAGTGCTAG,1.26 z-score
AATTTTTTTTCTAACTAAAAGTGCTAG,0.549 z-score
AATAAAATGAATATTAGAAGGTGCTAG,-0.117 z-score
TTAGGTTTCGACACTGGGTTGGTGCTA,3.38 z-score
TTAGATCTCAGTCTCGATAAGTGCTAG,0.503 z-score
TACTGGACTGGGGTTTCCCGGTGCTAG,-0.47 z-score
TTAGGTTTCCTGATCCTTTAGTGCTAG,1.11 z-score
GTCGGTTTCGGACTGGGGACGTGCTAG,5.13 z-score

# Sample 5
# Target: CCNA2, cyclin fold, Cln2 fusion (human)
# Technique: yeast growth competition, sequencing
# Sample: yeast
# Notes: strong parent motif
# Relative to: not given
# Direction: higher = stronger binding
# Starting sequence: SAMHD1 docking peptide (human); ASKSRVQLFKDDP
Substitution,normalised enrichment score
K3R,3.48
V6I,2.85
Q7M,0.703
D11F,1.51
S4V,5.85
R5Q,0.191
S4D,-0.152
R5K,1.47
D12R,1.92
S4L,1.54
D12S,3.24
S4W,3.66
D12H,2.7
Q7N,0.98
S2K,3.1

# Sample 6
# Target: Hepatocyte nuclear factor 3-alpha (Foxa1, Mus musculus, UniProt P35582, residues 1-468, full length assumed)
# Technique: EMSA with sequencing
# Form: double-stranded DNA, one strand shown
# Sample: in vitro
# Tested at: 10 and 20 nM
# Notes: whole designed probe, mean of two concentrations, ends assumed
# Relative to: negative control set to 0
# Direction: higher = stronger binding
# All sequences stand within: GTGAGCGGTGCCCATTGATGGGGAAC … TTTCACTGGGATCGTGGGGAC
# Target sequence (chain): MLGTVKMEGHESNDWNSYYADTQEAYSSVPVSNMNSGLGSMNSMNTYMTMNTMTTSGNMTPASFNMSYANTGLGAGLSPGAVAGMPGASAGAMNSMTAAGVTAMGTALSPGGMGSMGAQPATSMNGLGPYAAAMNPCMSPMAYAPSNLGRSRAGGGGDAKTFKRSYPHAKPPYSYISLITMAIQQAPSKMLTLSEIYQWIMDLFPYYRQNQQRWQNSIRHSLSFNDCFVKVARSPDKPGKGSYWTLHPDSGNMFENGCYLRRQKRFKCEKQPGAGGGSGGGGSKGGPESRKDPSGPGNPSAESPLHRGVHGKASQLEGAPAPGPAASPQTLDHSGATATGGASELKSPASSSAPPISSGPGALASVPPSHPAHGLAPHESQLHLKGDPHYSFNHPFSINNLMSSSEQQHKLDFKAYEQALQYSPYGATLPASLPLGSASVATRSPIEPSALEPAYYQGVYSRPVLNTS
Sequence,normalised bound fraction [ratio]
ACACTTCTTCCATTTCCTCAACTCCTAAACATTCATTTATTCATTCTTCATCACACAAAAATCTGAATCTGGCTTCTGCCCCCTACCCTCCTAAATTACTTTCTCAAATAGTATACATTTAGTCATTAAACAAACATACATACATGCATATTTTCAAGATTATCAAGCAATTCCTGTTTCAACTTTTCTTAAA,0.432
GGTGCCTCCCCAGCCACCTCCGCCCCTGCCTGCTTCTGATTCAACAGCGCCGACCCTACAAAAACAGGGCCCGCCCATCTCCGAGGATGGCAAAGTCATCTGTGCGGGCACGCGGGCGGCCAGTCCCCGGCGGCCCGCGTGCGTCACGGGGGCGGATGCAGAGGACCAGGAAGTTCGCCGACGACGCGCCCGC,-0.0625
AAAATACCTACTGAAATTAAAATACCAGGATAGGACAAAATGATCTTTGATGTTGTTTCCAATTATCTCGTGTTTGTTCTAGGCACTGGCTATGTCATCTAAGCTTCGCCTTTTTTTTTTTTTCATGGTGACACAACCATGGCTGTGTTCAGGTTTACATGTTCTTACTTGTGTATTGGGGAAGGTTGGCCCC,0.177
CCTAGTTAAGAAGAGGAAGATGGAAGTACTAATACAAAGTGTAGCTAAAAGACATTGCTGGGCTTTAACTTCTGCCTCCCATTCTCTGTTAAGTAAACAAGAAAATGGAGGCAAACAAGCTCCCTAGGTAGTGCTAAGCCACACGTTCTGACTGTGAGAAAGAATCTCTTGTGGAGAAAATGAAATAAACATA,0.549
ACCCATGTTTTAATAATCCAGAACATCAGTTGAGTACAAAATCTCTTTTTCTAATTAAGAATGTTTGACCACAAGAGGGAGTTCCTTGCCAACAGATTACTTAGCCTCAGCAGATATGATGGGCCAGAATTTACACAGAAAAATACCTTCAAATATATTTAGTTTCTTCAGTGCTTTTAGATTGAGAAAATGA,0.0168
TCCAAGCGCTCCGAATGTCCACTTGCAGATGCTACAAAAAGAGTGTTTCAAAACTGCTCTATGAAAAGGAATGTGCAAATCTGTGAGATAAATGCAATCTTCACAAAGAAGTCTTTGAGAATGCTTCTGTCTAGTTTGTATGTTAAGATATTTCCCATTTCACCATACGTCTTAACGCACACCAAATGTCCAC,-0.0535
GAACATGCCCCACAGATCATCTGAGCAGCTGCTGGCACTAACCCCATCCATCCGGGGCAACAGGCTCCACAGGCCCCGGGGAGAGGCTGAGCTGTTTACTTTTGGTTTCTCAATAACTCCTGTTTCCGAGGGCTCTCTGCCAAAGGGAGAGAGAGGGAAGTGGCATCCCATGGCCCTGTCCAAGGACAGCCCA,0.29
CCACTCAGCTGTTTTCTTAAACTTGGTTGAATAACTGGTATTCTTCCTGCTCACAAAGTCTTTGTTAGTGTGCATATTGCAAAACCATCCTAAGTAAACAGTCTGTGTCATCTGTATTAAAGGGAAGTTATGCATGGATTAGTGTATAATAGCATGGGTTAGGGAGAAAAATGAGTCACCAAAGTAGCTGGTT,0.44

# Sample 7
# Target: MAFF, bZIP domain (human)
# Technique: DHFR protein complementation
# Sample: yeast
# Notes: single substitutions, most at no-binding floor
# Relative to: wild-type JUN-FOS pair
# Direction: higher = stronger binding
# Starting sequence: JUN, bZIP domain (human); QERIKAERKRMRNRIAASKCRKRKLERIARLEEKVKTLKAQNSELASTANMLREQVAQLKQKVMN; partner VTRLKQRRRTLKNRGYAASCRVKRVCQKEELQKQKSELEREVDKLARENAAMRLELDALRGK
Substitution,binding fitness
S43Q,-1.15 natural log
R53V,-1.53 natural log
K36P,-1.52 natural log
Q55H,-1.43 natural log
I28E,-1.52 natural log
L59S,-1.36 natural log
S47I,-1.32 natural log
E44F,-1.54 natural log
V35P,-1.49 natural log
L59C,-1.56 natural log
A46M,-1.44 natural log
L38T,-1.49 natural log
A57Q,-1.4 natural log
K39W,-1.48 natural log
E44M,-1.46 natural log
S47F,-1.38 natural log

# Excerpt of the above (sample 5):
Substitution,normalised enrichment score
R5Q,0.191
S4D,-0.152
R5K,1.47
D12R,1.92
S4L,1.54
D12S,3.24
S4W,3.66
D12H,2.7
